Results collected from several papers.
A part holds a random share of what one study measured. Changes are numbered by the printed parent chain.

Study 1 — technique: competition protein-binding microarray; molecule type: double-stranded DNA, one strand shown; sample: in vitro; concentration: 2 µM; added: Cbf1 competitor, 0.05 µM; reading: higher = stronger binding; measurement: fluorescence intensity
Target: Phosphate system positive regulatory protein PHO4, full length, GST-tagged (PHO4, Saccharomyces cerevisiae, UniProt P07270, residues 1-312)
Notes: whole 60-bp probe, lowest competitor level
Target sequence (chain): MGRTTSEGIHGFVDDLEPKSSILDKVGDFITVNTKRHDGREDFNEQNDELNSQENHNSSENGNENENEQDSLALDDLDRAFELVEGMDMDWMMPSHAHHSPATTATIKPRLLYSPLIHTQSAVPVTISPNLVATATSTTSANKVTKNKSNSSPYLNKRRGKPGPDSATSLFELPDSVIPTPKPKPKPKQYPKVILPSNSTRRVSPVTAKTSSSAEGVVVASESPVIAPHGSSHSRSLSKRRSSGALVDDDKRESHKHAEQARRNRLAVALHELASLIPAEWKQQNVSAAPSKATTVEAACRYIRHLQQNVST
GATGATGTTGGTTTGACCGTGATGGATGTCCAAGTAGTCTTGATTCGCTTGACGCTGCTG: 5040 a.u.
CATACCCAACCTTGGACGGTGGGTGAAGATATTTGTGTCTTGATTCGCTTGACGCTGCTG: 3560 a.u.
CCTGGACCTCCTGACCACGTGGTACTGCAGCTTCAAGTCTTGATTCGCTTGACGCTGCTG: 17600 a.u.
GAAACAGAACTCGCTGATGTGATATTCACCATTCCAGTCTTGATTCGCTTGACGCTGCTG: 3190 a.u.
TTGCCGCAGAAGAGTCACGTGATGGGCACTCTTACTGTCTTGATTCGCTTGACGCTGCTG: 11700 a.u.
CGGGGTTAAGTTTGGTCGGTGGGTGGCTTGCAGCAGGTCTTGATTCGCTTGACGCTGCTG: 4530 a.u.
GACATTGCCCTGAGCATCGTGCAAATGGGGGACACTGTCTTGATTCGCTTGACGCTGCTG: 8480 a.u.
CAGAACCTGCTAAAGCACGTGATGGGAGAAAATCAAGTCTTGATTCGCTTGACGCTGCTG: 15500 a.u.
CTTCTGTAAATTTGTTGTGTGGGTGGACGCGCCCCGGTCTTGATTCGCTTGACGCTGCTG: 4750 a.u.
GTCTTGTCTCATTGTCACGGAACTTTCCCCACTTCAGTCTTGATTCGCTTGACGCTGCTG: 4470 a.u.
GTCTTGTCTCATTTCCACGTGTTTTTCCCCACTTCAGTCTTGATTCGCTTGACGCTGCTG: 14500 a.u.
TCAACACTGTACTGTCACATGCTAATAAAGATAACAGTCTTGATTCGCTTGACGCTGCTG: 11500 a.u.
CTAACGAAGGTTTTTCACGTGATCTACAAGCCAAGTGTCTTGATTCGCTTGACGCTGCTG: 12400 a.u.
CGCGATGTTCTCAGCATCGTGTAACCTTTGCTCGTAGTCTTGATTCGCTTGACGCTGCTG: 7170 a.u.
ACTCCCTGCGCCTATGCCGTGCCAGAGCAAATAAAGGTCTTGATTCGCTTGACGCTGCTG: 6240 a.u.
TCTCTCATTATTCCCACCGTGTCCTCAATCTCTTGTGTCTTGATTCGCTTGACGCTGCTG: 6000 a.u.
TTGTTGAATTTGGGACCCTTGTTGATACCTCTGGATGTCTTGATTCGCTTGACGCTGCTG: 2890 a.u.
CTTTCCCGATCTTGCTTCGTGGGTGTAGCACATTTGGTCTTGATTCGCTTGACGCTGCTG: 7080 a.u.
CTAACGAAGGTTTTTCACGTGTCTTACAAGCCAAGTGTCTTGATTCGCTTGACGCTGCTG: 13400 a.u.
AGATCCTGGACATGGAACGTGAACCTAGGCTTGATGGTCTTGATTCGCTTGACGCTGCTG: 8020 a.u.
AACCAGGGCAATTCATCCGTGACGGCGAATGTTTTGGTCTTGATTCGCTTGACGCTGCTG: 3760 a.u.
CTTTCCCGATCTTGTCACTCTACTTTAGCACATTTGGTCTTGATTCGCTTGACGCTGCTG: 3760 a.u.
TGCGCAACAACTTTTCACGTGCGTTTATGTCTAGAAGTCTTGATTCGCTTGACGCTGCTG: 16100 a.u.
CGATTTTTGCCTCACCACGTTCTGCCCATTCTTCTCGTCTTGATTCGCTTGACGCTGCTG: 13300 a.u.
CGGGGTTAAGTTTGCTGAGTGGGTGGCTTGCAGCAGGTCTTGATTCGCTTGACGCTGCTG: 4780 a.u.

Study 2 — technique: protein-binding microarray; molecule type: double-stranded DNA, one strand shown; sample: in vitro; concentration: 250 nM; notes: 60-bp whole probe; added: salmon DNA 0.4 mg/ml; relative to: random background probes; reading: higher = stronger binding; measurement: log fluorescence; constant ends, left off below: GCCTAGCAC … GTCTTGATTCGCTTGACGCTGCTG
Target: Interferon regulatory factor 5, full length, phosphomimetic (IRF5, Homo sapiens, UniProt Q13568-2, residues 1-514, K96S/S451D/S453D/S456D/S462D)
TTAGACCTCAGTATCGATTAGTGCTAG: 6.6 z-score
TTAGGTTCCGGTTTCGGATAGTGCTAG: 6.47 z-score
GACGATTTCGCGACTGGAGACGTGCTA: 0.395 z-score
GAAGATGTCAAACTCACTCAGTGCTAG: -0.282 z-score
TTAGATCTCAGTCTAGATTAGTGCTAG: 0.0572 z-score
GTAGAACTGAGACTGGATTAGTGCTAG: -0.271 z-score
ACTTTTTTTAATTGAGAAGCGTGCTAG: 0.461 z-score
GACGACCTGGGGACTGGAGACGTGCTA: -0.45 z-score
AACGAACTGAGACTGGAGACGTGCTAG: -0.217 z-score
CTTCCCCTCTAGGTTCTCTGAGTGCTA: 0.0877 z-score
TCACCTCTTTCACTGGTACTGTGCTAG: 2.66 z-score
TTAGATATTAGACTGGATTAGTGCTAG: 0.137 z-score
TCACAGCTGTTTTTCTCACTGTGCTAG: 0.677 z-score
TCATTTCTACTGTCTGTTACTGTGCTA: 1.93 z-score
TCCAATTCTCTTTTCACTTTGTGCTAG: 1.86 z-score
TTAGGACAGCTTTTCCTTTAGTGCTAG: 0.0543 z-score
GACGTTATCAGTCTCGAGACGTGCTAG: 1.23 z-score
TTAGGTATCGGTTACGGTTAGTGCTAG: 8.45 z-score
GACGGACTGGGGACTAGGGACGTGCTA: -0.396 z-score
TTGGGTTTCGGGTATCGGTTAGTGCTA: 8.7 z-score
TTAGATTTCGGGACTGGATTAGTGCTA: 2.74 z-score
TTTGCATTGCTTCTATAGGCGTGCTAG: 0.578 z-score
GACGGTTTCCTTTCCCAGACGTGCTAG: 0.841 z-score
TCAGTTTTTCATTTTTTACTGTGCTAG: 1.61 z-score
TTAGGTATGCTTTTCCTTTAGTGCTAG: 0.249 z-score

Study 3 — technique: aptamer microarray, sandwich; molecule type: DNA with 2'F-ANA; sample: in vitro; concentration: 200 nM; added: Cy3 exosite-II aptamer, 400 nM; reading: higher = stronger binding; measurement: mean fluorescence intensity; sequence: GGTTGGTGTGGTTGG
Target: Prothrombin, mature alpha-thrombin (F2, Homo sapiens, UniProt P00734)
Notes: whole 15-mer aptamer, many near background
2'F-ANA at 1 3 4 5 6 7 8 10 13 14: 48 a.u.
2'F-ANA at 1 5 6 7 8 10 12 13: 47.7 a.u.
2'F-ANA at 6 8 9 13 15: 330 a.u.
2'F-ANA at 2 4 8 11 12 13 15: 381 a.u.
2'F-ANA at 1 2 4 8 9 12 13 14: 54.6 a.u.
2'F-ANA at 2 3 4 5 7 8 9 11 12 15: 155 a.u.
2'F-ANA at 1 2 7 8 11 13 14: 56.1 a.u.
2'F-ANA at 2 8 10 12 14 15: 83.1 a.u.
2'F-ANA at 2 3 4 5 11 12 13 14: 50.7 a.u.
2'F-ANA at 1 2 5 6 9 10 12 13 14: 51.1 a.u.
2'F-ANA at 1 3 7 8 9 13: 288 a.u.
2'F-ANA at 1 2 3 6 8 9 14: 68 a.u.
2'F-ANA at 4 5 6 7 9 10 11 12: 54 a.u.
2'F-ANA at 2 5 6 8 9 10 13 14: 44 a.u.
2'F-ANA at 1 3 4 7 13 15: 200 a.u.
2'F-ANA at 1 3 4 5 6 7 9 10 11: 50.6 a.u.
2'F-ANA at 1 2 3 4 5 8 9 10 11: 54 a.u.
2'F-ANA at 1 2 3 4 5 7 12 13: 76.1 a.u.
2'F-ANA at 1 2 3 4 6 8 9 10 11 12 14 15: 53.8 a.u.
2'F-ANA at 1 3 5 9 12 13 14 15: 46.3 a.u.
2'F-ANA at 2 4 7 8 10 13 14 15: 62.7 a.u.
2'F-ANA at 2 3 4 5 6 9 14: 46.7 a.u.
2'F-ANA at 1 4 5 6 7 9 10 13 14: 47.1 a.u.
2'F-ANA at 4 6 7 9 11 12 13 14: 79 a.u.
2'F-ANA at 1 2 5 15: 60.7 a.u.

Study 4 — technique: universal PBM; molecule type: double-stranded DNA, one strand shown; sample: in vitro; concentration: not given; reading: higher = stronger binding; measurement: E-score
Target: Sal-like protein 4, full length isoform B (SALL4, Homo sapiens, UniProt Q9UJQ4-2, residues 1-616)
Notes: 8-mer, flanks averaged, mean of replicates
CTTACCAC: -0.0408
AGGTGCTG: -0.218
GTAAATGA: 0.2
ACACCAAC: -0.117
CGTATTAG: 0.183
AAACGAAT: 0.233
ACGGCCCC: -0.342
GGTAGGGA: -0.142
ACTCAAAA: 0.138
CGTACCCA: -0.132
ACCTTCCT: -0.14
GCACGTGC: -0.142
CAAGGCTG: -0.189
GACAAGAC: -0.0838
CGTGACTC: -0.129
TCAAGCCA: -0.0805
CAGAAGGA: -0.0747
TATCCTCA: 0.152
CAGGCAGC: -0.301
TGGCAACA: 0.0887
ACTTGTTG: 0.0312
AATATTCG: 0.364
GGAAATAA: 0.306
GTGCTCCA: -0.179
AGTCTAGC: -0.161

Study 5 — target: CCND1, cyclin fold, Cln2 fusion (human); technique: yeast growth competition, sequencing; sample: yeast; notes: weak parent motif; relative to: not given; reading: higher = stronger binding; measurement: normalised enrichment score
Parent: FOXM1 docking peptide (human); PHLARPIKVESPP; partner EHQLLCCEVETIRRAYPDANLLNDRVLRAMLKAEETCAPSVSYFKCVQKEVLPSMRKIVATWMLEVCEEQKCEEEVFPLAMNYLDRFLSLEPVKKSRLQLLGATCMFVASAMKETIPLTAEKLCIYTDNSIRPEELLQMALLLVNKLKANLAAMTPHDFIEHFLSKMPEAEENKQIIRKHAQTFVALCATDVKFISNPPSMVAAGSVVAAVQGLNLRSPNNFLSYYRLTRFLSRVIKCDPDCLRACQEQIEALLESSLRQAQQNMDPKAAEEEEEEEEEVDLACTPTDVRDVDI
PHLARPIKVESAP [P12A]: 0.11
PALARPIKVESPP [H2A]: 0.539
PHLARAIKVESPP [P6A]: -0.0424
PHLAAPIKVESPP [R5A]: 0.365
PHLARPIAVESPP [K8A]: 0.279
PHLARPIKVASPP [E10A]: 0.418

Some of these lines once more (study 2):
TTAGATATTAGACTGGATTAGTGCTAG: 0.137 z-score
TCACAGCTGTTTTTCTCACTGTGCTAG: 0.677 z-score
TCATTTCTACTGTCTGTTACTGTGCTA: 1.93 z-score
TCCAATTCTCTTTTCACTTTGTGCTAG: 1.86 z-score
TTAGGACAGCTTTTCCTTTAGTGCTAG: 0.0543 z-score
GACGTTATCAGTCTCGAGACGTGCTAG: 1.23 z-score
TTAGGTATCGGTTACGGTTAGTGCTAG: 8.45 z-score
GACGGACTGGGGACTAGGGACGTGCTA: -0.396 z-score
